# Experimental data pooled from the literature.
# Numbered parts are unrelated; each lists some results of a single study. “And” joins repeats or separate records; there may be more than shown.
# Chain of UniProt Q9Y2H1 (whole entry, looked up): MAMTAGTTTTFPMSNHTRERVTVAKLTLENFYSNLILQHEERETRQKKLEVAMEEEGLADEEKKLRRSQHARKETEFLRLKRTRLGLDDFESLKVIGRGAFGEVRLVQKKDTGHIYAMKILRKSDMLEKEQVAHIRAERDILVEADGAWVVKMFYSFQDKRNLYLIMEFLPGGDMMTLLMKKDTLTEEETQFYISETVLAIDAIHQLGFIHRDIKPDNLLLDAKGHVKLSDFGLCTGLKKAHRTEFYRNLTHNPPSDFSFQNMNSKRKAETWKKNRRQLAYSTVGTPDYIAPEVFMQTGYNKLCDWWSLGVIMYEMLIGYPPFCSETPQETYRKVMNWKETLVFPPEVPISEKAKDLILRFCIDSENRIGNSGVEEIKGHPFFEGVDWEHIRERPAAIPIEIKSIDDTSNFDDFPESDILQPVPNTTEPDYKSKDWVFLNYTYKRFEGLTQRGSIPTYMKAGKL
# Chain of UniProt Q6ZN16 (whole entry, looked up): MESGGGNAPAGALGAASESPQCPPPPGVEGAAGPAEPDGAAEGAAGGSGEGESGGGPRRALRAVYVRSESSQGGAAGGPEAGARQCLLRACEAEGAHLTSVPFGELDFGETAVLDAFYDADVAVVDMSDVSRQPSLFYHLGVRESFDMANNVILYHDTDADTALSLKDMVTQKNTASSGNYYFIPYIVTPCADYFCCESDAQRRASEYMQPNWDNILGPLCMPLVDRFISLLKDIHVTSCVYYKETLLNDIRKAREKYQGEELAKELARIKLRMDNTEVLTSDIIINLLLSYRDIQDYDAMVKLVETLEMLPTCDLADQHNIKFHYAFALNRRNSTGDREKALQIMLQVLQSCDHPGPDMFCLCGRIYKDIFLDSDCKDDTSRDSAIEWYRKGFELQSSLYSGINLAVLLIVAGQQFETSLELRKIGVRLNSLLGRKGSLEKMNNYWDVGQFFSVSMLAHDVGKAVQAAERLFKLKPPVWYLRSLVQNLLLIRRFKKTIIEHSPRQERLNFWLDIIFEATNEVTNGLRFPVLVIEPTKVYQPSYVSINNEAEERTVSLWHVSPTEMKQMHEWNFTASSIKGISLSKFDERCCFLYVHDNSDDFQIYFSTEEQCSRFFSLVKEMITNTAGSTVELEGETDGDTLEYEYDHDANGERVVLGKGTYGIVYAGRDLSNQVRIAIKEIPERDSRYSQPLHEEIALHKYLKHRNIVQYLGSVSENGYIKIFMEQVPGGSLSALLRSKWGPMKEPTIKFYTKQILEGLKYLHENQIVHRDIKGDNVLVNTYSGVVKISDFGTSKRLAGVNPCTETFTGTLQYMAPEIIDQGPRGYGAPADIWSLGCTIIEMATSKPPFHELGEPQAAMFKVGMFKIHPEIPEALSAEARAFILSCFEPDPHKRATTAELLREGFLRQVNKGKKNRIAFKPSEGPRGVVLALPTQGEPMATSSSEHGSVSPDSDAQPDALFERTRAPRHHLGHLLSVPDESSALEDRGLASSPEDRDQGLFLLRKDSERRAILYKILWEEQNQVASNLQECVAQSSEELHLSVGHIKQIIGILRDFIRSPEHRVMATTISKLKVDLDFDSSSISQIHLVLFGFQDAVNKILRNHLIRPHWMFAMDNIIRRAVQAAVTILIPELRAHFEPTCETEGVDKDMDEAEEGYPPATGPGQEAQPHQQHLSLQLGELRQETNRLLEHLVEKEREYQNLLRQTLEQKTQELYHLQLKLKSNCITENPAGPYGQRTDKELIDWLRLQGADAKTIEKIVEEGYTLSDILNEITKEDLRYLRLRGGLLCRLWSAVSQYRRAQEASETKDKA
# Chain of UniProt Q08881 (whole entry, looked up): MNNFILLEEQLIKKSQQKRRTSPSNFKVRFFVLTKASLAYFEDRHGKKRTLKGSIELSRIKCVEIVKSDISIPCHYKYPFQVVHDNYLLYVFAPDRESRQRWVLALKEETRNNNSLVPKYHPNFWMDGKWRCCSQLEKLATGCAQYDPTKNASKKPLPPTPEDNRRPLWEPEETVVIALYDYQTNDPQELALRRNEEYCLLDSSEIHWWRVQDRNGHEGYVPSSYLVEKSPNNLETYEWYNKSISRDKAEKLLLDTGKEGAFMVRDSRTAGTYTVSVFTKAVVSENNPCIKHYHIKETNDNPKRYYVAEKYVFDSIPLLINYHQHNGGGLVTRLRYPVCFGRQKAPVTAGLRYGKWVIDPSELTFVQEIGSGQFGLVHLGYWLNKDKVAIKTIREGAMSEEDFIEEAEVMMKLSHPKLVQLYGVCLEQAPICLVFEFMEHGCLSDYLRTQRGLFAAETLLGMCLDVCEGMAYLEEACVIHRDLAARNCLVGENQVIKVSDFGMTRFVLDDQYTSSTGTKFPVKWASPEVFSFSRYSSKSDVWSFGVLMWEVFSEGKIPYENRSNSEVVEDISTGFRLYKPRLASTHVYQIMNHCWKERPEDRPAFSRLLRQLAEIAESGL
# Chain of UniProt Q9UQB9 (whole entry, looked up): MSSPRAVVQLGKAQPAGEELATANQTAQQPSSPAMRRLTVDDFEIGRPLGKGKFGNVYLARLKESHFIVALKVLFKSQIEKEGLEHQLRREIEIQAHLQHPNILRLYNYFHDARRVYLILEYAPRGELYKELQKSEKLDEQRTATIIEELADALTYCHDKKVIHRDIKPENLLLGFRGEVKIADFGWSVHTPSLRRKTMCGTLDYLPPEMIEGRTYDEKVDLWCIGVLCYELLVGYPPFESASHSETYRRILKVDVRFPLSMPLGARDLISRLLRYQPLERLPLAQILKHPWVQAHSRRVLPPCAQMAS
# Chain of UniProt P51812 (whole entry, looked up): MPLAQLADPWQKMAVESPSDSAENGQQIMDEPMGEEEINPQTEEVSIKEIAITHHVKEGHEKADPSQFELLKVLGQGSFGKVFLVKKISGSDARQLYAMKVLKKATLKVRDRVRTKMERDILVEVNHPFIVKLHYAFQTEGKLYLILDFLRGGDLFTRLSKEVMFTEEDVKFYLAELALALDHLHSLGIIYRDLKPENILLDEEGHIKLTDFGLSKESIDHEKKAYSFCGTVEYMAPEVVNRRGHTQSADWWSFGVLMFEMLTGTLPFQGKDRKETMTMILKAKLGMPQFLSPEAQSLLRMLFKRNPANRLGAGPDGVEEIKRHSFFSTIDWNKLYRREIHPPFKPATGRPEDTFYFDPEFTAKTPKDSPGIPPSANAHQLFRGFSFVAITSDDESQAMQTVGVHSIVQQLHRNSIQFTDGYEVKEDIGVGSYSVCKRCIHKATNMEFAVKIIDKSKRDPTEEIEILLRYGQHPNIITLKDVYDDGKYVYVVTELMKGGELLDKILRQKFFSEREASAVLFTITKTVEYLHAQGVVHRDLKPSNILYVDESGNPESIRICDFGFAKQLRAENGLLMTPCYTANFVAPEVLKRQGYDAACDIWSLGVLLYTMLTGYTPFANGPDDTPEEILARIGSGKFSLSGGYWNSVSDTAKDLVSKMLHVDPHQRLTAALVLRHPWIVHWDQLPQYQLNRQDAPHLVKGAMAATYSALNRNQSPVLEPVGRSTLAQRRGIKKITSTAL
# Chain of UniProt Q12852 (whole entry, looked up): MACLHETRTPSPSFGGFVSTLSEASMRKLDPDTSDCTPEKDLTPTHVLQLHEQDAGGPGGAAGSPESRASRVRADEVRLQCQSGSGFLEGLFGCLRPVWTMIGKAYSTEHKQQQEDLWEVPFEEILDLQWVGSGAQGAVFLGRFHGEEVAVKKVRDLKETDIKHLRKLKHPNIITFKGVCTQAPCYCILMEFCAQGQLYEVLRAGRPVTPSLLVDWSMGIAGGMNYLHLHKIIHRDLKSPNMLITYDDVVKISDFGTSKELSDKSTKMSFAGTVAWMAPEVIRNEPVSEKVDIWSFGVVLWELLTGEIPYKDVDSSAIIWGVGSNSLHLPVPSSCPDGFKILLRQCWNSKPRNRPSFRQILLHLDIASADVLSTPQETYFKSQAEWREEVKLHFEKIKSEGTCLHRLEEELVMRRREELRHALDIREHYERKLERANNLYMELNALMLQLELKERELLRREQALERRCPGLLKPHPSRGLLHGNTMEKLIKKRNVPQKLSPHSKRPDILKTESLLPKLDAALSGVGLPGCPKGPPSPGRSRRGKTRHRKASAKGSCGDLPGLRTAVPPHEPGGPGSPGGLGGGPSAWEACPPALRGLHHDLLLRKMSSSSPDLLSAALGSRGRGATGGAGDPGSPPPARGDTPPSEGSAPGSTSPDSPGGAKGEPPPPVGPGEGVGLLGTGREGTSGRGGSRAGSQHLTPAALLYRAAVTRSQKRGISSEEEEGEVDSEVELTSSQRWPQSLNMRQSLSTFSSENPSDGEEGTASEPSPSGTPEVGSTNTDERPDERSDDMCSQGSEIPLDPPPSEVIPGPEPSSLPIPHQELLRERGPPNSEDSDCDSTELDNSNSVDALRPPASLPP
# Chain of UniProt Q8TBX8 (whole entry, looked up): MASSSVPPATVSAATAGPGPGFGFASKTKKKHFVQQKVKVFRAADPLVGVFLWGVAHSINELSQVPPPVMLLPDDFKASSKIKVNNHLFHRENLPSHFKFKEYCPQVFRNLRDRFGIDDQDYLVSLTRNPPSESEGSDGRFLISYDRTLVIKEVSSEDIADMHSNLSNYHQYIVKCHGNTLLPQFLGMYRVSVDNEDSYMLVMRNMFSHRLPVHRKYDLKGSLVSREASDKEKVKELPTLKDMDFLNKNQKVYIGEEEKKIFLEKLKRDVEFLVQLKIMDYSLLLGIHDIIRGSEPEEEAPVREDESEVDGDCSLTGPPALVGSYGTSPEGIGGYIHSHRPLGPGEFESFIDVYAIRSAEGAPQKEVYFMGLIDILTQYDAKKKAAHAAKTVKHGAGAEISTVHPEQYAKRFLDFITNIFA

# Set 1 — organism: Sarcocystis neurona; read-out: parasite activity; tested at: 10 µM; time: 96 h
Structure (SMILES),activity class
Cc1cccc(C)c1NC(=O)C(C)N (stereo not drawn),inactive
CC1(C)S[C@@H]2[C@H](NC(=O)COc3ccccc3)C(=O)N2[C@H]1C(=O)O,inactive
O=C1[C@H](CC[C@H](O)c2ccc(F)cc2)[C@@H](c2ccc(O)cc2)N1c1ccc(F)cc1,inactive
Nc1nc(N)c2nc(-c3ccccc3)c(N)nc2n1,inactive
O=c1[nH]cc(F)c(=O)[nH]1,active
COC1=CC(=O)C[C@@H](C)[C@]12Oc1c(Cl)c(OC)cc(OC)c1C2=O,inactive

# Set 2 — read-out: cell-free assay; technique: competition with immobilised ligand; tested at: 1 µM
# Structure (SMILES): CNCc1ccccc1-c1csc([C@@H](C)Nc2nc(C)nc3cc(OC)c(OC)cc23)c1
target,remaining binding [%]
"MAP3K12 (Homo sapiens, UniProt Q12852)",100
"Non-receptor tyrosine-protein kinase TYK2, JH2 (TYK2, Homo sapiens, UniProt P29597)",71
"Ribosomal protein S6 kinase alpha-6, C-terminal kinase domain (RPS6KA6, Homo sapiens, UniProt Q9UK32)",100
"PIK3CA (Homo sapiens, UniProt P42336, H1047Y)",100
"Ribosomal protein S6 kinase alpha-3, C-terminal kinase domain (RPS6KA3, Homo sapiens, UniProt P51812)",76
"MINK1 (Homo sapiens, UniProt Q8N4C8)",57
"FLT3 (Homo sapiens, UniProt P36888, K663Q)",77
"PIP4K2C (Homo sapiens, UniProt Q8TBX8)",92
"PRKG2 (Homo sapiens, UniProt Q13237)",85
"STK38L (Homo sapiens, UniProt Q9Y2H1)",86
"ITK (Homo sapiens, UniProt Q08881)",100
"MAP3K15 (Homo sapiens, UniProt Q6ZN16)",60
"Aurora kinase C (AURKC, Homo sapiens, UniProt Q9UQB9)",92
"CDK8 (Homo sapiens, UniProt P49336)",68
"LATS2 (Homo sapiens, UniProt Q9NRM7)",98

# Set 3 — host: human; medium: microsomes or S9; tested at: 2 µM; time: 0.5 h
Structure (SMILES),remaining compound
CC(C)CCN1CC2(CCCN(C(=O)c3ccc(=O)n(C)n3)C2)CCC1=O (stereo not drawn),62.5%
CCOc1cc(=O)n2c(c1C(=O)Nc1cccc(C(=O)OC)c1)CCCC2,3.65%
Cc1c(CC(=O)O)c2ccccc2n1C(=O)c1ccc(N2CCOCC2)nc1,42.2%
O=S(=O)(c1ccc(Cl)s1)N1CCNCC1,99.2%
COc1cc(C2CC(=O)Oc3cc4c(c(OC)c32)C(=O)O[C@@H](C)CCCC(=O)CCC/C=C/4)cc2c1OCCO2 (stereo partly drawn),10.8%

# Set 4 — technique: Incucyte 3D growth; tested at: 30 µM; reading: higher = more growth
# SMILES: CC(C)(C(=O)O)[C@H](NC(=O)Cc1cccc(I)c1)c1ccc2oc(=O)[nH]c2c1
cell line,conditions,spheroid area
A375,474.52 h,1.51e+08 a.u. and 1.49e+08 a.u. and 1.62e+08 a.u. and 1.63e+08 a.u. and 1.42e+08 a.u. and 1.77e+08 a.u.
A375,78 h,4.31e+07 a.u. and 4.22e+07 a.u. and 5.19e+07 a.u. and 6.15e+07 a.u. and 5.44e+07 a.u. and 5.82e+07 a.u.
MEL-JUSO,402.52 h,7.36e+07 a.u. and 3.99e+07 a.u. and 3.71e+07 a.u. and 4.09e+07 a.u. and 3.08e+07 a.u. and 4.03e+07 a.u.
A375,516.52 h,1.44e+08 a.u. and 1.54e+08 a.u. and 1.42e+08 a.u. and 1.74e+08 a.u. and 1.38e+08 a.u. and 1.48e+08 a.u.
